{"data": "Assay results from different studies", "note": "Numbered parts are unrelated; each lists some results of a single study. Several values in a cell are separate wells, animals, samples, runs or records.", "UniProt Q7L7X3, sequence (whole entry, looked up)": "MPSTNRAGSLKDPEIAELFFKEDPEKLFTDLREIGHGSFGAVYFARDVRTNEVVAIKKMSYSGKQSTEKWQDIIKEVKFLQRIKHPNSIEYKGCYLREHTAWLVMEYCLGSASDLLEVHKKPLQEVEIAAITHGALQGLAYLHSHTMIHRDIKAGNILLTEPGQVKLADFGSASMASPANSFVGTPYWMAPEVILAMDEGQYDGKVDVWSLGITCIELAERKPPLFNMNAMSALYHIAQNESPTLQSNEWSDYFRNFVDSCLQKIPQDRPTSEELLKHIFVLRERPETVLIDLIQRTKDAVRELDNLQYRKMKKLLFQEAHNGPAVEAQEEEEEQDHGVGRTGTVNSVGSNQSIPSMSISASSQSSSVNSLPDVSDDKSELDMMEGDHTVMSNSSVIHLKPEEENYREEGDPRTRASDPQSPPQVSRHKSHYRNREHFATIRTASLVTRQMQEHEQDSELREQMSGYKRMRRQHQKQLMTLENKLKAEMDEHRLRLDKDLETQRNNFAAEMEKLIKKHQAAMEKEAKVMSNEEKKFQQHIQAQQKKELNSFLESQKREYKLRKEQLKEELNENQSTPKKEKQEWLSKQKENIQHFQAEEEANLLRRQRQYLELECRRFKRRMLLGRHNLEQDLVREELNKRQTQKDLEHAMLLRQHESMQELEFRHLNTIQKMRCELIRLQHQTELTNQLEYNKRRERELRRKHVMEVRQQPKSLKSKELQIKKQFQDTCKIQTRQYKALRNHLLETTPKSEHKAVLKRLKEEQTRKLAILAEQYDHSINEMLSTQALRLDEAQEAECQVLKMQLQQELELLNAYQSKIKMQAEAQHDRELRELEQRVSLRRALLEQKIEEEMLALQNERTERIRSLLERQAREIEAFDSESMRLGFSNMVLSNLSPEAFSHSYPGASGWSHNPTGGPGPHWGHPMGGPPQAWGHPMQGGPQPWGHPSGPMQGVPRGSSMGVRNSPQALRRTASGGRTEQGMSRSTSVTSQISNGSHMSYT", "UniProt Q9Y6R4, sequence (whole entry, looked up)": "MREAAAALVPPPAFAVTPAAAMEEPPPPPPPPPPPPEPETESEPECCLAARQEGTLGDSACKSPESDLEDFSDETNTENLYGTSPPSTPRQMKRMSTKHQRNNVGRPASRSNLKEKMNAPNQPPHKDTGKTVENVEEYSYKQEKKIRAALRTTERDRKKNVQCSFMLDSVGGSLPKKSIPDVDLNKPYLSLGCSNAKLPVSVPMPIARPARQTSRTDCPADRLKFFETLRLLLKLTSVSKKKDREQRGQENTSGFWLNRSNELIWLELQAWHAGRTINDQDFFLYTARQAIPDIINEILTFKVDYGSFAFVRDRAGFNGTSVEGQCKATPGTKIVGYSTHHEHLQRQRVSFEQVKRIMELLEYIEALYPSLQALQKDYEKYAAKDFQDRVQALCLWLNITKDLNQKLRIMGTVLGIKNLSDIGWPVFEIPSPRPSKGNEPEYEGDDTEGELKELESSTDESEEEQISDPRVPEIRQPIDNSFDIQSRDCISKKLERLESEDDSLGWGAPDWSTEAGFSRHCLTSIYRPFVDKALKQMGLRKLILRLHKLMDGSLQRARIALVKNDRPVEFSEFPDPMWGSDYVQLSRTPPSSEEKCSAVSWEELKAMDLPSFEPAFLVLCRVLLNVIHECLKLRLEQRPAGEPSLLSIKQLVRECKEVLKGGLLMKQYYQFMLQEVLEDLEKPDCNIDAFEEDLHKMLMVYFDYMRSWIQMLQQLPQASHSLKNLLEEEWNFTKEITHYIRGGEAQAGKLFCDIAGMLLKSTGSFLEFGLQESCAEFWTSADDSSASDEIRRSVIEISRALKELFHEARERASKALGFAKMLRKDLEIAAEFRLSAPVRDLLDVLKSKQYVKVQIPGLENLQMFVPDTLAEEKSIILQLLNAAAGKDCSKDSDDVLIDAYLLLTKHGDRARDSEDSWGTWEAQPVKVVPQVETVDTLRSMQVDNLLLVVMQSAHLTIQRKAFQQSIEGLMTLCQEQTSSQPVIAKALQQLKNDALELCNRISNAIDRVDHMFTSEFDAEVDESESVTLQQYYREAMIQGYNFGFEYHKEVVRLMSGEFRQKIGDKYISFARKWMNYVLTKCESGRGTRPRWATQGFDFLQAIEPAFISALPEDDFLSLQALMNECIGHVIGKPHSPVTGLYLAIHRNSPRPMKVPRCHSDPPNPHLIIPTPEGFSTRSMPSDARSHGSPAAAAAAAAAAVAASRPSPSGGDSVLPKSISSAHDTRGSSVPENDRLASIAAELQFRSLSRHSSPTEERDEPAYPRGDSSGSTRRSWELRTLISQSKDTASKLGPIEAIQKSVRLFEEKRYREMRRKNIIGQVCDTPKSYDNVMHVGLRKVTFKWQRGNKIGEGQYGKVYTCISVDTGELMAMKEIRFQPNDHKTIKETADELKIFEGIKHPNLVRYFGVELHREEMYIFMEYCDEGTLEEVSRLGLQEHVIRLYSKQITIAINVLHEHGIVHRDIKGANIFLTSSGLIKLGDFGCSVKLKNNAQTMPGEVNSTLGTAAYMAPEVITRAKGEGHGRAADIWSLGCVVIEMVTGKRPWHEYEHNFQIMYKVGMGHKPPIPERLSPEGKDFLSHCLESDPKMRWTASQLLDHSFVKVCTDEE", "UniProt P80192, sequence (whole entry, looked up)": "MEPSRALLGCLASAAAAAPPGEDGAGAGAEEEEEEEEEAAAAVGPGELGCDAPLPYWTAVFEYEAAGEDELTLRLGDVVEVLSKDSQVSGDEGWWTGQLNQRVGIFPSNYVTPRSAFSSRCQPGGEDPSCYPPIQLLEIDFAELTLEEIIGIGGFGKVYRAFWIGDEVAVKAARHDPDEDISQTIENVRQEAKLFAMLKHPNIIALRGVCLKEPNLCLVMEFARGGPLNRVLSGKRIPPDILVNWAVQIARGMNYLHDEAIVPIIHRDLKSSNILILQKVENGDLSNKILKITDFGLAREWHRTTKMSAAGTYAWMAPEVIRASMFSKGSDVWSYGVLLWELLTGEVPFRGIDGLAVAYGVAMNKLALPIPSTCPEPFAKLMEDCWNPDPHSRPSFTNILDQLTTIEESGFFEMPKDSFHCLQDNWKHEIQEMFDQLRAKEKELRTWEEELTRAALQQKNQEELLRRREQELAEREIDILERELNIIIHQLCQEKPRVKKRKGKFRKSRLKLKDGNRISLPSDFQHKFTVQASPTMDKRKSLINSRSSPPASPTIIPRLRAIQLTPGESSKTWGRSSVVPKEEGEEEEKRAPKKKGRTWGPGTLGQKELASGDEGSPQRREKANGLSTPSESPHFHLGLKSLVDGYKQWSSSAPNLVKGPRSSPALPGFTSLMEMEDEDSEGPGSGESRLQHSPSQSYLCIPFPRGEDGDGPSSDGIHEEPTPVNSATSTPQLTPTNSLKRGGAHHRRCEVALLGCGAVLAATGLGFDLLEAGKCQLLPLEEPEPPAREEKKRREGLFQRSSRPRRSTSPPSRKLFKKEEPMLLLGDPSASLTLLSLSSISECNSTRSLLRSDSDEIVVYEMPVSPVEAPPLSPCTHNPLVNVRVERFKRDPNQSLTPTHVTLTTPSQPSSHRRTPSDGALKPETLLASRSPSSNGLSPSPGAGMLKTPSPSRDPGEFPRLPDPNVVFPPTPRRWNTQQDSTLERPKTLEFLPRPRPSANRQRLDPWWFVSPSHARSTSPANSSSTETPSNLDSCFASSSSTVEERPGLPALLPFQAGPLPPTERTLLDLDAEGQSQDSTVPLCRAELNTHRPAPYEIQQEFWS"}
{"data": "Sample 1", "SMILES": "O=C1NC(=O)c2c1c1c3ccccc3[nH]c1n1cncc21", "read-out": "enzyme activity", "action": "inhibitor", "concentration": "0.5 µM", "baseline": "control"}
{"target": "Activin receptor type-1 (ACVR1, Homo sapiens, UniProt Q04771)", "remaining activity": "103%"}
{"target": "Serine/threonine-protein kinase TAO1 (TAOK1, Homo sapiens, UniProt Q7L7X3)", "remaining activity": "135%"}
{"target": "Serine/threonine-protein kinase VRK1 (VRK1, Homo sapiens, UniProt Q99986)", "remaining activity": "78.1%"}
{"target": "Serine/threonine-protein kinase ULK1 (ULK1, Homo sapiens, UniProt O75385)", "remaining activity": "97.2%"}
{"target": "Mitogen-activated protein kinase kinase kinase 9 (MAP3K9, Homo sapiens, UniProt P80192)", "remaining activity": "72.5%"}
{"target": "Phosphorylase b kinase gamma catalytic chain, liver/testis isoform (PHKG2, Homo sapiens, UniProt P15735)", "remaining activity": "108%"}
{"target": "Serine/threonine-protein kinase PLK1 (PLK1, Homo sapiens, UniProt P53350)", "remaining activity": "50.8%"}
{"target": "Serine/threonine-protein kinase Sgk3 (SGK3, Homo sapiens, UniProt Q96BR1)", "remaining activity": "111%"}
{"target": "Platelet-derived growth factor receptor beta (PDGFRB, Homo sapiens, UniProt P09619)", "remaining activity": "68.4%"}
{"target": "Fibroblast growth factor receptor 2 (FGFR2, Homo sapiens, UniProt P21802)", "remaining activity": "91.3%"}
{"target": "BDNF/NT-3 growth factors receptor (NTRK2, Homo sapiens, UniProt Q16620)", "remaining activity": "49%"}
{"target": "Mitogen-activated protein kinase kinase kinase kinase 5 (MAP4K5, Homo sapiens, UniProt Q9Y4K4)", "remaining activity": "13.5%"}
{"target": "Tyrosine-protein kinase HCK (HCK, Homo sapiens, UniProt P08631)", "remaining activity": "94.6%"}
{"target": "Receptor-interacting serine/threonine-protein kinase 2 (RIPK2, Homo sapiens, UniProt O43353)", "remaining activity": "67.5%"}
{"target": "RAF proto-oncogene serine/threonine-protein kinase (RAF1, Homo sapiens, UniProt P04049)", "remaining activity": "108%"}
{"target": "Dual specificity tyrosine-phosphorylation-regulated kinase 2 (DYRK2, Homo sapiens, UniProt Q92630)", "remaining activity": "64.1%"}
{"target": "Insulin receptor-related protein (INSRR, Homo sapiens, UniProt P14616)", "remaining activity": "20.7%"}
{"target": "Serine/threonine-protein kinase D3 (PRKD3, Homo sapiens, UniProt O94806)", "remaining activity": "47.7%"}
{"target": "Activated CDC42 kinase 1 (TNK2, Homo sapiens, UniProt Q07912)", "remaining activity": "41.3%"}
{"data": "Sample 2", "target": "CRBN/Zinc finger protein Helios (Homo sapiens, UniProt Q96SW2+Q9UKS7)", "action": "degrader", "method": "HiBiT", "cell line": "HEK293", "concentration": "41.15 nM", "UniProt Q96SW2, sequence (whole entry, looked up)": "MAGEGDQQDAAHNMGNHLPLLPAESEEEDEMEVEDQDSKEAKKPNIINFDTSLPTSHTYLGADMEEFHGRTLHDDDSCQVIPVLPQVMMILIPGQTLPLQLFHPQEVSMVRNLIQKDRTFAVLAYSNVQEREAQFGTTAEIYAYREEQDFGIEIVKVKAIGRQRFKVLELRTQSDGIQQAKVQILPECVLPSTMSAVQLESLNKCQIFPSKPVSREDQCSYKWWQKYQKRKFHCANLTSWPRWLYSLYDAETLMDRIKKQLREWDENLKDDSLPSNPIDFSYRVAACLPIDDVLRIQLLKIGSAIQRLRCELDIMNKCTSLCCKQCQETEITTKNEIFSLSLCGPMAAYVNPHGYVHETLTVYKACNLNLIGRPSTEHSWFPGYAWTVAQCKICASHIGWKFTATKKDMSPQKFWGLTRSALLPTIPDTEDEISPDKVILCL", "UniProt Q9UKS7, sequence (whole entry, looked up)": "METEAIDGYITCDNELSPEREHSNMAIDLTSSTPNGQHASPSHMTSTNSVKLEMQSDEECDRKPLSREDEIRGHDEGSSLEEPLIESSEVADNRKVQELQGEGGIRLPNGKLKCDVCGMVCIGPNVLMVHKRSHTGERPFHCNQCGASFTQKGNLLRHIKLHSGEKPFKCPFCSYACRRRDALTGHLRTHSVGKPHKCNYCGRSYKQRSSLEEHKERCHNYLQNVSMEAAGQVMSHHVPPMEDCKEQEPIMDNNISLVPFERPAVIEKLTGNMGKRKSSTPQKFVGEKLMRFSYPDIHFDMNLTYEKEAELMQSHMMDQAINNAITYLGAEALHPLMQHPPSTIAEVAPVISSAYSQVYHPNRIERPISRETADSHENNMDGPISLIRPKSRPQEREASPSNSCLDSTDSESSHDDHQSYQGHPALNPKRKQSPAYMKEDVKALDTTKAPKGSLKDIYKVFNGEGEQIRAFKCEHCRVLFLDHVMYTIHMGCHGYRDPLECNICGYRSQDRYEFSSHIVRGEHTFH"}
{"SMILES": "O=C1CCC(N2Cc3c(ccc4c3OCC43CCC(Oc4ccccc4)CC3)C2=O)C(=O)N1 (stereo not drawn)", "protein remaining [%]": 89.7}
{"SMILES": "O=C1CCC(N2Cc3c(ccc4c3OCC43CCC(Cc4ccccc4)CC3)C2=O)C(=O)N1 (stereo not drawn)", "protein remaining [%]": 90}
{"SMILES": "O=C1CCC(N2Cc3c(ccc4c3OCCC43CCN(Cc4ccccc4)CC3)C2=O)C(=O)N1 (stereo not drawn)", "protein remaining [%]": 71.2}
{"data": "Sample 3", "Compound": "C[C@@H]1CN(c2cc(-c3nn(C)c4ccc(OC5(C)CC5)cc34)ncn2)C[C@H](C)O1", "read-out": "cell-free assay", "method": "competition with immobilised ligand", "concentration": "1 µM"}
{"target": "Non-receptor tyrosine-protein kinase TYK2, JH1 (TYK2, Homo sapiens, UniProt P29597)", "remaining binding [%]": 51}
{"target": "Myosin light chain kinase family member 4 (MYLK4, Homo sapiens, UniProt Q86YV6)", "remaining binding [%]": 100}
{"target": "Dual specificity tyrosine-phosphorylation-regulated kinase 1B (DYRK1B, Homo sapiens, UniProt Q9Y463)", "remaining binding [%]": 100}
{"target": "Mitogen-activated protein kinase kinase kinase 6 (MAP3K6, Homo sapiens, UniProt O95382)", "remaining binding [%]": 76}
{"target": "Serine/threonine-protein kinase SIK2 (SIK2, Homo sapiens, UniProt Q9H0K1)", "remaining binding [%]": 100}
{"target": "Casein kinase I isoform alpha-like (CSNK1A1L, Homo sapiens, UniProt Q8N752)", "remaining binding [%]": 78}
{"target": "Cyclin-dependent kinase 17 (CDK17, Homo sapiens, UniProt Q00537)", "remaining binding [%]": 88}
{"target": "Serine/threonine-protein kinase Nek5 (NEK5, Homo sapiens, UniProt Q6P3R8)", "remaining binding [%]": 100}
{"target": "Aurora kinase C (AURKC, Homo sapiens, UniProt Q9UQB9)", "remaining binding [%]": 100}
{"target": "Serine/threonine-protein kinase/endoribonuclease IRE1 (ERN1, Homo sapiens, UniProt O75460)", "remaining binding [%]": 69}
{"target": "Dual specificity mitogen-activated protein kinase kinase 4 (MAP2K4, Homo sapiens, UniProt P45985)", "remaining binding [%]": 82}
{"target": "Serine/threonine-protein kinase 16 (STK16, Homo sapiens, UniProt O75716)", "remaining binding [%]": 100}
{"target": "Casein kinase I isoform delta (CSNK1D, Homo sapiens, UniProt P48730)", "remaining binding [%]": 84}
{"target": "Tyrosine-protein kinase ABL1, non-phosphorylated (ABL1, Homo sapiens, UniProt P00519, F317L)", "remaining binding [%]": 67}
{"target": "LIM domain kinase 2 (LIMK2, Homo sapiens, UniProt P53671)", "remaining binding [%]": 92}
{"target": "Mitogen-activated protein kinase kinase kinase 4 (MAP3K4, Homo sapiens, UniProt Q9Y6R4)", "remaining binding [%]": 100}
{"target": "RAC-beta serine/threonine-protein kinase (AKT2, Homo sapiens, UniProt P31751)", "remaining binding [%]": 89}
{"data": "Sample 4", "target": "Eukaryotic initiation factor 4A-III (Homo sapiens, UniProt P38919)", "read-out": "RNA clamping", "method": "fluorescence polarization", "concentration": "concentration not given", "added": "FAM-labelled poly r(AG)8 RNA", "UniProt P38919, sequence (whole entry, looked up)": "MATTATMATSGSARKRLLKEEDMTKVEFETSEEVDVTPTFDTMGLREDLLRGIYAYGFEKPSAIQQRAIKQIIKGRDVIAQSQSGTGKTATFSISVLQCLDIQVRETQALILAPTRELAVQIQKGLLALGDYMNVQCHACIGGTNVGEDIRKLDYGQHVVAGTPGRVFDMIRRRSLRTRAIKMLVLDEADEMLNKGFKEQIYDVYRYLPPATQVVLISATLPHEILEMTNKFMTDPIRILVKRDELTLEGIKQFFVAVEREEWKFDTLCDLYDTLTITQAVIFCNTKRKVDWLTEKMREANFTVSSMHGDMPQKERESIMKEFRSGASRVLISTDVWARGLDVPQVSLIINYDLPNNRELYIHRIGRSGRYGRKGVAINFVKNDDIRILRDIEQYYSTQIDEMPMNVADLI"}
{"Compound": "COc1ccc([C@]23[C@H](c4ccccc4)C[C@@H](O)[C@@]2(O)c2c(OC)cccc2N3C)cc1", "fluorescence polarization change": "-5.8 mP"}
{"Compound": "COc1cc(OC)c2c(c1)O[C@@]1(c3ccc(Br)cc3)[C@H](c3ccccc3)C3=C(N[C@H]4CCCN4C3=O)[C@@]21O", "fluorescence polarization change": "18.6 mP"}
{"Compound": "COc1ccc([C@@]23Oc4cc(OC)c(F)c(OC)c4[C@]2(O)c2nc4n(c(=O)c2[C@H]3c2ccccc2)CCC4)cc1", "fluorescence polarization change": "12.8 mP"}
{"Compound": "C#CCCCOC(=O)/C=C/Cn1c(-c2ccccc2)nc2c(c1=O)[C@@H](c1ccccc1)[C@]1(c3ccc(OC)cc3)Oc3cc(OC)cc(OC)c3[C@]21O", "fluorescence polarization change": "5.2 mP"}
{"Compound": "COc1ccc([C@@]23Oc4cc(OC)cc(OC)c4[C@]2(O)c2nc(-c4cccc(OC)c4)[nH]c(=O)c2[C@H]3c2ccccc2)cc1", "fluorescence polarization change": "8.8 mP and 26.8 mP"}
{"Compound": "COC(=O)[C@@H]1[C@@H](c2ccccc2)[C@]2(c3ccc(OC)cc3)Oc3cc(OC)cc(OC)c3[C@@]23N=C(c2ccccc2)N[C@@]13O", "fluorescence polarization change": "11.7 mP"}
{"Compound": "COc1ccc([C@@]23Oc4cc(OC)cc(OC)c4[C@]2(O)[C@H](O)[C@H](C(=O)NOCc2ccccc2)[C@H]3c2ccccc2)cc1", "fluorescence polarization change": "5.6 mP"}
{"Compound": "COCCN[C@@]12C(=O)C[C@@H](c3ccccc3)[C@]1(c1ccc(OC)cc1)Oc1cc(OC)cc(OC)c12", "fluorescence polarization change": "-1 mP"}
{"Compound": "COC(=O)[C@@H]1[C@@H](c2ccccc2)[C@]2(c3ccc(OC)cc3)Oc3cc(OC)cc(OC)c3[C@@]23NC(C(C)C)=N[C@@]13O", "fluorescence polarization change": "19.7 mP"}
{"note": "Excerpt of the above (sample 1):"}
{"target": "Mitogen-activated protein kinase kinase kinase 9 (MAP3K9, Homo sapiens, UniProt P80192)", "remaining activity": "72.5%"}
{"target": "Phosphorylase b kinase gamma catalytic chain, liver/testis isoform (PHKG2, Homo sapiens, UniProt P15735)", "remaining activity": "108%"}
{"target": "Serine/threonine-protein kinase PLK1 (PLK1, Homo sapiens, UniProt P53350)", "remaining activity": "50.8%"}
{"target": "Serine/threonine-protein kinase Sgk3 (SGK3, Homo sapiens, UniProt Q96BR1)", "remaining activity": "111%"}
